# Assay results gathered from unrelated publications.
# Each numbered part is a random draw from the data of one study; scales do not carry over between parts.

# Block 1
# Target: Centromere-binding protein 1, full length, N-terminal tag (CBF1, Saccharomyces cerevisiae, UniProt P17106, residues 1-351)
# Chain of UniProt P17106 (whole entry, looked up): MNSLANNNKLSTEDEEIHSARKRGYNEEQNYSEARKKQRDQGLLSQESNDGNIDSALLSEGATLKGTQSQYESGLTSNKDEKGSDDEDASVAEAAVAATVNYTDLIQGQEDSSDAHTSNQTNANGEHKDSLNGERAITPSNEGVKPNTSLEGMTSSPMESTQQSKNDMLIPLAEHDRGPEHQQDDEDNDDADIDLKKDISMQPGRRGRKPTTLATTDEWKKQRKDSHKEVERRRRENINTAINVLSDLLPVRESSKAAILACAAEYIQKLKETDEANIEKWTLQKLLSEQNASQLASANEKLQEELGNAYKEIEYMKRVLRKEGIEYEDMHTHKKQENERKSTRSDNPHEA
# Method: protein-binding microarray
# Form: double-stranded DNA, one strand shown
# Matrix: in vitro
# Tested at: 0.8 µM
# Notes: whole 60-bp probe, no competitor
# Direction: higher = stronger binding
Strand,fluorescence intensity [a.u.]
CTACGCACATACATGCACGCGCATGACAGTGACTTCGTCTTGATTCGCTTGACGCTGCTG,853
GAACAGTCGAAGAATCTCCTGTTTCATAAACATTAGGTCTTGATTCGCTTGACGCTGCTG,489
GAATAATTTCCGCCCCACGTGCTGGAAATAACATAGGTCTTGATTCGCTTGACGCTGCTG,9480
TGTACGAAGCTATTAAACATGACTATAGTAGTTAGGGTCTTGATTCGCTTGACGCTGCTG,529
GAAATTTGTCAACCTCGTGGGAGACTCGATAGGTAGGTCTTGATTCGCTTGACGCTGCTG,605
CTAATCCATTGGAATCACGCCCTAGTTCAGCAATTCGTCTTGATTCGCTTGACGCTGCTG,667
GAACATGAGAACCCATGTGAGTCTAAAGCTGTGTAGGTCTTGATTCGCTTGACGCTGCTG,617
CTAGATTTATCAGAAGACGTGACCTAGGGTTCTTTCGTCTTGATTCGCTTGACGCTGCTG,1230
CCTAACTACTATATTCTGATGTTATAGCTTCGTACAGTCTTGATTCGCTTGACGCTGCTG,523
GAATGGAATACCAGTTTAATCACGATCAGAAATTAGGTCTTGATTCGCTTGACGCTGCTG,684
CTATTAGACATTTCCCACGTATACAAATATATTTTCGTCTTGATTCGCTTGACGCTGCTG,510
CTACACTGATTGCTCCACGTCATGCGGCCTTCTTTCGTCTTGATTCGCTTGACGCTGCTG,582
CTATATCGTTCTCAAGACGTGGTCCCATTTTTTTTCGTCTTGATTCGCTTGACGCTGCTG,531
CTATTTGCACCTATCCACGAGAGAAAGCAAGGATTCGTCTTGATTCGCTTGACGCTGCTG,569
CCTAACTACTATATGGACATGATATAGCTTCGTACAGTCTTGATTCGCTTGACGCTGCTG,539
TGTACGAAGCTATATCACCTCTTTATAGTAGTTAGGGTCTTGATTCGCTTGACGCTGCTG,522
GAATCTTCGCAAGTACATGTGCGCAGCAGCCATTAGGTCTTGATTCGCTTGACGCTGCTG,652

# Block 2
# Target: Ras GTPase-activating protein-binding protein 1, full length (G3BP1, Homo sapiens, UniProt Q13283)
# Chain of UniProt Q13283 (whole entry, looked up): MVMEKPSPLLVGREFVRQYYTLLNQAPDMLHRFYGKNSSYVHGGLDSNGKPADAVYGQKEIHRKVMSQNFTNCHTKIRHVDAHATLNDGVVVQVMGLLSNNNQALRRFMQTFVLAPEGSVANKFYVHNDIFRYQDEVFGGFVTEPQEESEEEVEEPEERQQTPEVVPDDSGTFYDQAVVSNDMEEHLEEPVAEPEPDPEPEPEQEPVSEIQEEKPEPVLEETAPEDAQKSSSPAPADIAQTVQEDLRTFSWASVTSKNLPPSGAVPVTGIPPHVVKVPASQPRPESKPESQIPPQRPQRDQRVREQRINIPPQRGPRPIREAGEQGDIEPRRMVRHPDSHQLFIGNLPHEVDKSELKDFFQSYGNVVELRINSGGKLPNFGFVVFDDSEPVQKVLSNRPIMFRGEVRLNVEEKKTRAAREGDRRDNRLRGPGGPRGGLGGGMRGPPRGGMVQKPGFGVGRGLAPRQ
# Method: RNA Bind-n-Seq
# Form: RNA
# Matrix: in vitro
# Tested at: 200 nM
# Notes: whole 134-nt RNA, ends assumed
# Added: 150 mM LiCl
# Baseline: input library
# Direction: higher = stronger binding
# All molecules: 7-deaza-guanosine replaces G
Strand,log2 enrichment
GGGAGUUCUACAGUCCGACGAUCCCUCAAGUCCUGUGCUACACAUCGUAUGUACCGAAUCGGGCCGGCCGGGCCGGAAAGUAUUAUGUUACGCCGUUCGGAUCUGCACUUCCAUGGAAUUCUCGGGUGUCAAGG,0.996
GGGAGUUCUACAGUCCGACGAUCCCUGUGCUACACAUCGUAUGUACCGAAUCGGGGUUUUUUUGGGUUUUUUUGGUUUUUUUGGAAAGUAUUAUGUUACGCCGUUCGGAUCUGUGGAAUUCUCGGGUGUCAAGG,1.34
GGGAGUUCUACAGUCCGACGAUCCCUGUGCUACACAUCGUAUGUACCGAAUCGGGGUUUUUGGGGUUUGGGGAAAAAAAGGGGAAAGUAUUAUGUUACGCCGUUCGGAUCUGCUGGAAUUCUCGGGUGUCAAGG,-0.121
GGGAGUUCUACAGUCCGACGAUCCAAGUCCUGUGCUACACAUCGUAUGUACCGAAUCGGCCCGGGGCCCGGCCCGGGGAAAGUAUUAUGUUACGCCGUUCGGAUCUGCACUUCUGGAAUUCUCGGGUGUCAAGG,-0.174
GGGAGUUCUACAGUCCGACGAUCUGUUGUCUGGGUUUGGGGGUCGAGUAGAUGCGGGGCAGCCGGAGCUGUUGACGGAAAGGAGUAGCCCCAAAGGAGGGCAUGUGAAGUCGCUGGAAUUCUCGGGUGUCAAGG,0.102
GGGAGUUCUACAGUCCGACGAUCGCAGGAAGUAAAAACAAAUGGAAAUGCUUCCGAUAGUGGCAGGGGUGGGGGUUGCUAAGGAAAGGGUGGGAUGGGAGUGGGUAAAGAGUUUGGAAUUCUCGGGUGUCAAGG,0.196
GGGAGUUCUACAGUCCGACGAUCGCAGGAAGUAAAAACAAAUGGAAAUGCUUCGGAUAGUGGCAGGGGUGGGGGUUGCUAAGGAAUGGGUGGGAUGGGAGUGGGUAAAGAGUUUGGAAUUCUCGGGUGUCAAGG,-0.176
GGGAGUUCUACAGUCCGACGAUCUGGGAGGUGGAUUUUGUUUAUUUUUUUAGCUCAUUUCCAGGGGUGGGAAUUUUUUUUUAUUAUGUGUCAUGAAUAAAGUUGUUUUUGAAAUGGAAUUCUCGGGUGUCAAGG,-0.185
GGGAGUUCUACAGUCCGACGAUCCUCAAGUCCUGUGCUACACAUCGUAUGUACCGAAUCGGGGUGGGUGGGGUGGGGAAAGUAUUAUGUUACGCCGUUCGGAUCUGCACUUCCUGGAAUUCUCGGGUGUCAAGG,-0.492
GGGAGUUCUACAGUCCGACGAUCACCAUGCAGGUGGGCAUCUUUGGGAAGUGGGGCAAGGGGGGGAUAGGGAGGGGGGUAACACGUUGGGAACAGGUGGUCCCAGGUCGUUUCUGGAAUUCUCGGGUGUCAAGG,0.245
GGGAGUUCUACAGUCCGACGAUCGCAGGAAGUAAAAACAAAUGGAAAUGCUUCGGAUAGUGGCAGGGCUGGGGGUUGCUAAGGAAAGGGUGGGAUGGGAGUGGGUAAAGAGUUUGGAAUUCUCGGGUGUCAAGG,0.0688

# Block 3
# Target: RNA binding protein fox-1 homolog 2, RRM domain, GST-SBP tag (RBFOX2, Homo sapiens, UniProt O43251-10, residues 100-194)
# Method: RNA Bind-n-Seq
# Form: RNA
# Matrix: in vitro
# Tested at: 365 nM
# Notes: natural RNA segment, single round, ends assumed
# Baseline: no-protein control
# Direction: higher = stronger binding
# Residues (chain): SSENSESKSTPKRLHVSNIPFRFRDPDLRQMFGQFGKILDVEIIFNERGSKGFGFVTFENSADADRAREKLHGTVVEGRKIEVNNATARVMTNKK
Strand,RBNS enrichment (R)
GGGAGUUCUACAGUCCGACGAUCAGAGGUGUCCUCUGUCACGUGUGUAACAGCUGGAACACAGUGGCCGUCUUCCCUCGGCUCUUGUUGGUGUGUGCAUGUGCUGCGUGCACACCGGGUUGUAUGGCGUCAGCUGGAAUUCUCGGGUGCCAA,0.647
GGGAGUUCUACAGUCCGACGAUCAAACACAAUAUAUAUCAAUAUCUAUAUAUCUAUAUAUCGAUCUAUAUAAACUACUAGCUUUUCCUUUGGUGUUUGCGCCUUUUUCCUAUCUCAGUUUGAUGGGUGGCCAUUGGAAUUCUCGGGUGCCAA,0.529
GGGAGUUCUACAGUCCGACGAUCAGAAGUGCUGGGAAGAAAAAGCUAUGUGGUUUCUACCAUUUUAGCAGGAUAAAGAGGAUAACUCCUUCCAUUAGCAAAUUUUACAGUUGUUAACAGUACUCUGCCAUAUUUGGAAUUCUCGGGUGCCAA,0.234
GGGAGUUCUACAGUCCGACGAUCUUGUCUUUUUUGAUCUAAUUUAUAUUUUAUAUUGUUGAAUUCUCCCUCCUUUGGCUUGUGGGAUCCUUUUUCUCUAAUAUCUGUCUUUCUUUUUUUAGUUGAUCUUUCCAUGGAAUUCUCGGGUGCCAA,1
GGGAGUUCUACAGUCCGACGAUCUGGCCACUGAGUGGUUAUCACCUCAGUGAAUCUUCCCAGGGCUCUGCAGUAAAAACAAAGGACAACCCAGCCAAGCAGAGGAAGAAGCUGCCGAAGGGGACAGACUCCACUGGAAUUCUCGGGUGCCAA,0.269
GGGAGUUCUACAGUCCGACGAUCAACCGUCUCAUCAGCUCUUGACACUUCCAUCGUGCGUGGGGACUUUGCUUCCAGAGAAUUGGAACGUGUGUGGCCUGGAGCGCAGUAGAAACCAGCCGUUCCCAACCUAUUGGAAUUCUCGGGUGCCAA,0.628
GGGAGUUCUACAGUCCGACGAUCAUGUGUAGGUCUACAACUGCUAGUCUAAAAACUGUUUGCACCGAGCCCUCUGAUCAGAGUGGAUGAGACCCUACAGAGGGCUGGCAGGAUUUACUAAUCUAGUGGAAUAUUGGAAUUCUCGGGUGCCAA,0.655
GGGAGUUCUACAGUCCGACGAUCCUGCUGCCCCCUCCACCCCCAACCCAGUCCUACCUGUCACACCGGACGGACCCGCUGUGCCUUCUACCAUCGUUCCACCAUUGAUGUACAUACUCAUGUUUUACAUCUUUUGGAAUUCUCGGGUGCCAA,0.632
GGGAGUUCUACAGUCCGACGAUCCUUACUAAUGAUUCAUAAUGUGAUCUUGAGAAAUGUGUUUAAGCUUUCUGAGUCUUAACCUCCUUGUCUCUAAAAUGGGCAAUUAAAACAAUCUUCAAGAGCCCUGUAAGUGGAAUUCUCGGGUGCCAA,0.286
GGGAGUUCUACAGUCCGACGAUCUUAUAAAUCUUUCAAAUUAGUUCCUUUUUAGAAUUUACCAACAGGUUCAAAGCAUACUUUUCAUGAUUUUUUUAUUACAAAUGUAAAAUGUAUAAAGUCACAUGUACUGCUGGAAUUCUCGGGUGCCAA,0.777
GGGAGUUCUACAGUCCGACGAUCGUGCUGUCCUGACCACAGAGUCUCCAGAACUGAGGACAUAAUUGCUCCUGUAUUUCUGUGUUCCUCGGCCCUCUUGUCUGCCCAUUUCGUGUCCAGAGAGGGACAGGGUCUGGAAUUCUCGGGUGCCAA,0.276
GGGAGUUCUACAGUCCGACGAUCGAUGGGCGCUGACCCCCUAUCCAGAAUCACAUGCACAAGUUUUUACCUAGCCAGUUGUUUCUGAGGACCAGGCAACUUUUGAACUCCUGUCUCUGUGAGAAUGUAUACUUUGGAAUUCUCGGGUGCCAA,0.437

# Block 4
# Target: Interferon regulatory factor 3, full length, phosphomimetic (IRF3, Homo sapiens, UniProt Q14653, residues 1-427, S386D/S396D/S398D/S402D/T404D/S405D)
# Method: protein-binding microarray
# Form: double-stranded DNA, one strand shown
# Matrix: in vitro
# Tested at: 2540 nM top
# Notes: 60-bp whole probe
# Added: salmon DNA 0.4 mg/ml
# Baseline: random background probes
# Direction: higher = stronger binding
# Constant ends, left off below: GCCTAGCAC … GTCTTGATTCGCTTGACGCTGCTG
# Construct (chain): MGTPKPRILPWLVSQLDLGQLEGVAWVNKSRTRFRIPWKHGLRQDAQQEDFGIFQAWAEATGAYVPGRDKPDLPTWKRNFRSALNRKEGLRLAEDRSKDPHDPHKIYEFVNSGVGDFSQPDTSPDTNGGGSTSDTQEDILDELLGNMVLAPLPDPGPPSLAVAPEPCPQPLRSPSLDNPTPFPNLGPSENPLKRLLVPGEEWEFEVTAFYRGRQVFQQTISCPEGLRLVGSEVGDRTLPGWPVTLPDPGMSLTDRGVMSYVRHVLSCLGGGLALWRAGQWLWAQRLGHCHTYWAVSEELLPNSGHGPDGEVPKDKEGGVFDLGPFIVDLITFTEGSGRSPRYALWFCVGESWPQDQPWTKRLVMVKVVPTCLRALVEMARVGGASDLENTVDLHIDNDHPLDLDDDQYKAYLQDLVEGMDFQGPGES
Strand,fitted relative affinity [z-score]
TCAATTATTGTTTCCTTACTGTGCTAG,5.15
GACGGACTGCTTCTCCTGAAGTGCTAG,-0.278
TTAGATTTCAGTATCGATAAGTGCTAG,2.38
TTAGGTATCCCTATCCTTTAGTGCTAG,4.49
AAGTTTCTCCTTTGTAAATAGTGCTAG,2.35
GACGATATCAGTTTCGAGTCGTGCTAG,4.13
GACGATTCCAGTTTCGACACGTGCTAG,2.92
GACGGTCTCCTTATCCTCACGTGCTAG,2.48
TTCGGTATCGGGACTGGGTTAGTGCTA,2.36
TTAGGTATCGGTATCGGTTCGTGCTAG,6.1
GACCGTTTCGACTATCGGGACGTGCTA,3.33
CCTACCGCCCTTACCGCCGCGTGCTAG,0.666
GACGATATCGGGACTGGGGACGTGCTA,0.0181
TTAGGACTGGGAACTGGGTTAGTGCTA,-0.772
TTAGATTTCAGTAGCGATTAGTGCTAG,0.387
GACGGTCTCGGTTTCGGAACGTGCTAG,5.39
GACAGTTTCGGTATCGGGACGTGCTAG,8.68
TCAGCTTTTTTTTTTTTACTGTGCTAG,0.504
TTAGATATCGGGTATCGGTTAGTGCTA,0.924
TACGGTATCGGGACTGGGGACGTGCTA,1.4
AACGATCTCAGTATCGAGACGTGCTAG,0.739
GACGGTCTCCCACTGCTGACGTGCTAG,0.786
TAATTTTTTAGCTTCTCAATGTGCTAG,0.152
GACGAACTGGGGACTCGAGACGTGCTA,-0.539
TTAGGTATCAGTTTCGGTTAGTGCTAG,7.52

# Repeated from above (block 4):
Strand,fitted relative affinity [z-score]
GACGATTCCAGTTTCGACACGTGCTAG,2.92
GACGGTCTCCTTATCCTCACGTGCTAG,2.48
TTCGGTATCGGGACTGGGTTAGTGCTA,2.36
TTAGGTATCGGTATCGGTTCGTGCTAG,6.1
GACCGTTTCGACTATCGGGACGTGCTA,3.33
CCTACCGCCCTTACCGCCGCGTGCTAG,0.666
GACGATATCGGGACTGGGGACGTGCTA,0.0181
TTAGGACTGGGAACTGGGTTAGTGCTA,-0.772
TTAGATTTCAGTAGCGATTAGTGCTAG,0.387
GACGGTCTCGGTTTCGGAACGTGCTAG,5.39
